Measured values gathered from unrelated publications.
Each numbered part is a random draw from the data of one study; scales do not carry over between parts.

Series 1
Target: Interferon regulatory factor 3, full length, phosphomimetic (IRF3, Homo sapiens, UniProt Q14653, residues 1-427, S386D/S396D/S398D/S402D/T404D/S405D)
Chain of UniProt Q14653 (whole entry, unmodified, looked up): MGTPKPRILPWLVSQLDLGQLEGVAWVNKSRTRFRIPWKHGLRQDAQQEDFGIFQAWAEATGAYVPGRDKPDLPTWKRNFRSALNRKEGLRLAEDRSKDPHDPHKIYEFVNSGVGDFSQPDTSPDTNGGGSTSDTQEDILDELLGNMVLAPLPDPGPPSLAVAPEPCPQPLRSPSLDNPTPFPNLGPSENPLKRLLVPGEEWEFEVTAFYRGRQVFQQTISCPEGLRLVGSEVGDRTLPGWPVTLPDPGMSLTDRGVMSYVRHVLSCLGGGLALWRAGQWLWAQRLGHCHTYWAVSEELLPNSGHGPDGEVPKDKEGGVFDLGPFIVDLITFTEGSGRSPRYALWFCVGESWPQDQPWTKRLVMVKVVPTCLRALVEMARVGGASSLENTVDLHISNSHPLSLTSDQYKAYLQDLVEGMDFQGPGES
Technique: protein-binding microarray
Form: double-stranded DNA, one strand shown
Matrix: in vitro
Tested at: 2540 nM top
Setting: 60-bp whole probe
Added: salmon DNA 0.4 mg/ml
Relative to: random background probes
Reading: higher = stronger binding
All sequences stand within: GCCTAGCAC … GTCTTGATTCGCTTGACGCTGCTG
| Oligonucleotide | fitted relative affinity [z-score] |
| --- | --- |
| TTAGGTTTCGGGTATCGATTAGTGCTA | 4.54 |
| TGAGATATCGGGACTGGATTAGTGCTA | -0.4 |
| GACGATTTCAGTATCGATACGTGCTAG | 3.15 |
| TCATACATGTGTTTAAAACTGTGCTAG | 0.178 |
| CACGATATCGGGTATCGAGACGTGCTA | 0.206 |
| CTGATCCTTCATTTGAAAGAGTGCTAG | 1.1 |
| GACGGTCACGGTTTCGGGACGTGCTAG | 2.22 |
| TCCTCTCTCTATTCAGAGGAGTGCTAG | 1.91 |
| TTAGGTCTCGGTTTCGGCTAGTGCTAG | 2.97 |
| TTTGGTATCGGTTTCGGTTAGTGCTAG | 8.55 |
| TCAACTCTGGAGGTTGAGACTGTGCTA | -0.438 |
| GACGGACCGGGGTATCGGGACGTGCTA | -0.326 |
| CCCTGAGTCCCTTGGGCCTTGTGCTAG | -0.989 |
| TTAGGTCTCCCTATCCTTTAGTGCTAG | 2.18 |

Series 2
Target: RING finger protein unkempt homolog, zinc fingers 1-6, GST-SBP tag (UNK, Homo sapiens, UniProt Q9C0B0, residues 30-357)
Chain of UniProt Q9C0B0 (30-357, looked up): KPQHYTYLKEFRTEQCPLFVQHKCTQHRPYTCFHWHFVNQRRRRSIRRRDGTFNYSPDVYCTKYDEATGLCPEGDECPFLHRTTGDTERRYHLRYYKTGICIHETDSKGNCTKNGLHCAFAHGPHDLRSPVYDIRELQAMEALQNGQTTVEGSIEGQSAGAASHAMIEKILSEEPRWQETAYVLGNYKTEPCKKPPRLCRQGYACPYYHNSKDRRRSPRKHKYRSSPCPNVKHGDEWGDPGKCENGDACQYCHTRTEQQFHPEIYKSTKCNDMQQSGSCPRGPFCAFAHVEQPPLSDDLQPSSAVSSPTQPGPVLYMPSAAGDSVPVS
Technique: RNA Bind-n-Seq
Form: RNA
Matrix: in vitro
Tested at: not given
Setting: RNA with constant flanks, human-mouse chimeric sites, ends assumed
Relative to: input RNA pool
Reading: higher = stronger binding
All sequences stand within: GGGAGUUCUACAGUCCGACGAUC … CAACAGAGGAUUGAGCAUCA
| Oligonucleotide | bound/input enrichment [ratio] |
| --- | --- |
| UACUACUGAAUCUGUGAUAUUGGCAAUUAUUAUUAUGGCCAGGGUCAUCCCAUGAAGCCUCAUAGAAUCCGGAUGACUCAUAACUUGCUGUUAAAUUAUGGUUUAUACCGAAAAAUGGAA | 0.266 |
| AACAGAUUGUCUUUAAGGUCAACGUAGGAGAAUGCUGGGGUGAUCAUUGUUGCCCAUAUAUAGUAAUACUGAGCUUUAAUGCUGUUCCAUGUUACAUCUUUCCUUCACUCCAGAAUUGUU | 0.231 |
| GCCACCAAUUCCAGCCAACAUGACCCUUGCUGCCUACAAAGAGAAGAUGAAGGAGCUCCCGCUGGUGUCCUUGUUCUGCUCCUGCUUCCUGGCCGAUCCCCUGAAUAAGUCGUCCUACAA | 0.37 |
| AGAAUCUUGGGACUGUUUUACUUAAUUGGUCAUUGAUAGCUUAACAAACAUGGAGAUGAGAUUAGAAAUCUUGACAUCAACAGGUAUUAAGCAGAAAAAACCAUGGCCCAGAGUAUCCUG | 0.133 |
| UCCUUGGACCCCAGUCAUAUAGGUGACCUGCAGAAAGCAGACACCAGUAGUCAAGGUGCUUUAGUGUUUCUCUCAAAGGACUACGAGAUAGAAAAUCAAAAUCCCCUGGCCUCUCCUACG | 1.46 |
| AAAGAACCUCUCUCUGAAGAAGAGGAAGAAGACAAUGAUGAUGUUGAACCCAUUUCUGAAUUUCGAUUUGUGCCCAGUGAUAAGUCAGCAUUGGAGGCGAUGUUCACAGCAAUGUGUGAG | 0.315 |
| GCACUUGGGAAUGUAAUCAGCGCCUUGGGGGACAAGAGCAAGAGGGCCACCCAUGUCCCUUACAGAGACUCUAAGCUGACAAGACUCUUGCAGGAUUCCCUUGGGGGUAACAGCCAAACC | 0.137 |

Series 3
Target: Sal-like protein 4, full length isoform A (SALL4, Homo sapiens, UniProt Q9UJQ4, residues 1-1053)
Chain of UniProt Q9UJQ4 (whole entry, looked up): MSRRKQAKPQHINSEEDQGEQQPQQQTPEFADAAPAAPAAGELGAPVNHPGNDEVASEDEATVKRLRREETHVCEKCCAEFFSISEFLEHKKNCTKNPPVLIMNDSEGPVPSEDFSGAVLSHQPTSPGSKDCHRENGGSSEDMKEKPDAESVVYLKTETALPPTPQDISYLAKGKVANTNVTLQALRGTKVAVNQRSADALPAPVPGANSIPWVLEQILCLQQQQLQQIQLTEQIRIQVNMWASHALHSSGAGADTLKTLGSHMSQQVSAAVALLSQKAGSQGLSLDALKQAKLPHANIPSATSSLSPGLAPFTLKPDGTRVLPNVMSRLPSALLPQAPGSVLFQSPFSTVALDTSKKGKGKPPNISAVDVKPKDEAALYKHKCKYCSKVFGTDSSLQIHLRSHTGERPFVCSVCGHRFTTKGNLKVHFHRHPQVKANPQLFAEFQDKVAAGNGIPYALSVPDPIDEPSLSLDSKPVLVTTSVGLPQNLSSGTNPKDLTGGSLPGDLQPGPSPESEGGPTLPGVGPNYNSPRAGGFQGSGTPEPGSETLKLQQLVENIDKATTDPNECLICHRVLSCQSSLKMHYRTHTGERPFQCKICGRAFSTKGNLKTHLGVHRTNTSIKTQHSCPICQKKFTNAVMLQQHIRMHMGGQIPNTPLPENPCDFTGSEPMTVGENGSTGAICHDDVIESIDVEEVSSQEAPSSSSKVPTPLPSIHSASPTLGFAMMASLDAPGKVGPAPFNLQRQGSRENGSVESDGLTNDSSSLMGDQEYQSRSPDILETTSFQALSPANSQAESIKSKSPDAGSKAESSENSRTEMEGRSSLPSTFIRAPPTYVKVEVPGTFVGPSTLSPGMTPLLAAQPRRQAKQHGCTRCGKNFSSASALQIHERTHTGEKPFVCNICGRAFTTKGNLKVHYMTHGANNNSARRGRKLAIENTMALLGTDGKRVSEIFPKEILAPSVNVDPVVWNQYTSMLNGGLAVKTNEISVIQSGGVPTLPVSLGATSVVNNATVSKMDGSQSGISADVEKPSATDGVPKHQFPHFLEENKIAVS
Technique: universal PBM
Form: double-stranded DNA, one strand shown
Matrix: in vitro
Tested at: 600 nM
Setting: 8-mer, flanks averaged, mean of replicates
Reading: higher = stronger binding
| Oligonucleotide | E-score |
| --- | --- |
| AAGTCGGT | -0.103 |
| TGAACGAA | 0.0867 |
| TCTCTCAA | 0.0975 |
| GGGGCCGA | -0.386 |
| ACTAATGC | 0.115 |
| CTCCGAAA | -0.0189 |
| ACGCGTAA | 0.0386 |
| CCACAAGC | -0.242 |
| CATGTACA | 0.142 |
| ATCGAAAG | 0.115 |
| CCTATTCG | -0.0686 |
| CGCTGGGA | -0.375 |
| CAGGAAAG | -0.0613 |
| AGAAGCAT | 0.125 |
| AACGGCGA | 0.0239 |
| AGACTGCT | -0.0349 |
| GATTAAAC | 0.0912 |
| TGCAGCCA | -0.204 |
| ATTTGCTA | 0.19 |
| AGTCGGGG | -0.195 |
| GCCGTACA | -0.0603 |
| AGACCTAA | -0.0174 |
| GTTGCGGA | -0.142 |
| CACCCTAG | -0.0392 |
| CCTTATTC | 0.159 |

Series 4
Target: RNA binding protein fox-1 homolog 2, RRM domain, GST-SBP tag (RBFOX2, Homo sapiens, UniProt O43251-10, residues 100-194)
Technique: RNA Bind-n-Seq
Form: RNA
Matrix: in vitro
Tested at: 365 nM
Setting: natural RNA segment, single round, ends assumed
Relative to: no-protein control
Reading: higher = stronger binding
All sequences stand within: GGGAGUUCUACAGUCCGACGAUC … UGGAAUUCUCGGGUGCCAA
Residues (chain): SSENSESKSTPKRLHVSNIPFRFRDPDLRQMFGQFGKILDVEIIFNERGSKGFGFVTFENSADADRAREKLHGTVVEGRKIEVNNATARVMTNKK
| Oligonucleotide | RBNS enrichment (R) |
| --- | --- |
| UUUCCAGACUUUUUUUUAAAAACACAUCGUGGGUUUUUUGAGGCUCCAACCUGAUUAGUGCAUGGUCAGCCCUCAAUGAAGGCUGAGGCAUCUCUGACUGAGGUGUUUUU | 0.785 |
| UUCACAAAGGAGUAGGCCAUGUAGGAGAAAGGGAUAGUGACUUAGUCUUAAGGUGACUAAGAUUCACCUCAGCAGAGCCAAUCUUUUUGGGGGGAUGGGAGGGAGACUUA | 0.542 |
| GGCAUGCUAAGUCCUGUAAUUCCCUCUAACAUUGAGUCAGAUACAUCAUGGGACAUCAUGGGAUGGCAGCUAGAUAGCAUGAAACAAUUUAUCUUCUCAUAUUUGACAAA | 41.7 |
| UAAAAAUGCAAAGCCUAUAUGUUGAGACAUUGUAUUCCUAAUUAGAUUCUCUGUCCUUUGCACAUAACUUUCUUUUAAACUUAGUUCUAACCCUAAAUCUUGACAUCAGA | 0.462 |
| UAGGAUGGAGGAGACAGAGGUCUGUUGUCAUCUACUGUCGCUGGGUAAUAAGGAGGGAGCUCUGGACUCAAAGCAGCUGGCUUCCACAGCUGAAGGUUUUACAUUACGUU | 0.984 |
| AAGUCCACUAACUGUUCAAAGAUAAGGAGCAGUGCCUAUUCUCAAGAGCAGCCAUGCCAUGUACUCCUUUGUUCCUAUCUGGGAAGGUUGUUGACGGUACUGACCAAGCA | 1.03 |
| GAAGUACACAUUUGGCCCAAAUUCACCGGGAUAAGUGAGAACAGCCAGAAGCAUAAAAUGUGAUGAAGGUUUCUCCUGGGAACCUUAUUUUACUCUUCAUUUCAGGGUUU | 0.334 |
| UGUUUGAAGUCUGCGAUGAAAAAUAAUUUUUAAAAGUAUUAAGAACACUAAAAUGGAUUAGAAUUAUCUUAAAAGAUCCUUUAUAAAAUGACUUGUAUUGAUUGGUUUAU | 1.11 |
| CGCAUUUAAAAUGUAUUCUUAAUGUGCUGUAGUGUGUGUGAGCCGGUGUCCAGAGGUGUGAAAUAUACCAUGUAAUCUCACACAGGUGGACUGUGGAACCGUUUUUAUGG | 0.832 |
| UGGAUGCCCCAGCGCCUGGGGUGAACAGCCAGACGCAGCAGACACGACUCCAGUGUCAGAGCAGGGCCACCUGGGGUGUGUAGGAUGGGUACAGGGUUCCCAGCCUCAGG | 0.733 |
| GCGAAGCUUGGGAUCUGGCCAAGUUGGACUUUGAUCCUUUGGGCAGAUGUCCCAUUGCUCCCUGGAGCCUGUCAUGCCUGUUGGGGAUCAGGCAGCCUCCUGAUGCCAGA | 0.271 |
| AGUUUCUUACAGAAAGUACCUGUGAUUUUUUUUAAUGUUUAGAUUUGUAGUCUAGUCUAUUCUGAAGAUAUUUGAUUAAUAUAUUUCUAAGAAGACCACUAGUCCCAUGA | 0.538 |

Series 5
Target: Hepatocyte nuclear factor 3-alpha (Foxa1, Mus musculus, UniProt P35582, residues 1-468, full length assumed)
Technique: EMSA with sequencing
Form: double-stranded DNA, one strand shown
Matrix: in vitro
Tested at: 10 and 20 nM
Setting: whole designed probe, mean of two concentrations, ends assumed
Relative to: negative control set to 0
Reading: higher = stronger binding
All sequences stand within: GTGAGCGGTGCCCATTGATGGGGAAC … TTTCACTGGGATCGTGGGGAC
Construct (chain): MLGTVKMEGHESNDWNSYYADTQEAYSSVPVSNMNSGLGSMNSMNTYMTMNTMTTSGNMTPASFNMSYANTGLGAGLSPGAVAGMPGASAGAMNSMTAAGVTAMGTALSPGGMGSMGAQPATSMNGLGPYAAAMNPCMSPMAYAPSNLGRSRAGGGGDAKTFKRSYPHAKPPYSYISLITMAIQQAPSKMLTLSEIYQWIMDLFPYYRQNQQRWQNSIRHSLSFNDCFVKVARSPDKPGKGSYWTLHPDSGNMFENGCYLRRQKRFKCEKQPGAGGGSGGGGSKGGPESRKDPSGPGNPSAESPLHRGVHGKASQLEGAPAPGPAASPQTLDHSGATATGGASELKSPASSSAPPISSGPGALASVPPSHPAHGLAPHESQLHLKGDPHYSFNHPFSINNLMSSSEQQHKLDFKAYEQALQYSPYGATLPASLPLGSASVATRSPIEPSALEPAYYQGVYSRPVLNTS
| Oligonucleotide | normalised bound fraction [ratio] |
| --- | --- |
| TAAAATATTTAGATAAACTTAGATCCACTGTAGCTTGAAATTGTAATTTTCCCAGAGATTTCTATGGAATTAATTTTGTAAGAAACTAATATGTAATCTTGAATGCTAATTTATAGATGCTTTTGCTTTTATCAGTAATATTTAATGTAGTTCTCTTCTATTTTTTGAAAATGATTACCTTGCTAAAGACATT | -0.024 |
| ATCTTCCCCCTCTTCCTTGCCCCACCAGCTCACCTTCCCGGGTTATTTGCAGATAGGAAAATAAATAAAGCCGGCATTCGTTAACCCTCTTCTGGCGCAAACTGCTGTTTGCTCTGGATGAATCATGGTCCTTTGGCGACGCCAGGCTCCGGGAGAGAGCACAACCGTGTCAGGGCCATGATCCGGGGTGGCC | 0.346 |
| GAGGGGACGCCCTGGAGCTCAGGTGCTCAAGGGCGTGCGCGGGGCTCGGCCGCCGGTGTCCCTGGAGATGCTTCTCTGGTCTGGTGTGACACGAGAGTACACAGTCCCCGCCCTCTCGTGAGCGCCCGGGTGCGTGTGCTCCCTCCCGACCACCCTGAGGAGCGAGGGTGCTGGTCCCCGAGAGGGCGGCGAG | -0.0424 |
| GATATTTCGCATGCGCAATTCACAATAAGGTTCATACTCCTATGAGAATCTAATGCTGCCTCTGATCTGACAGGAGGCAGCTCAGGCAGTAGTGTAATCTATGGGGAGTGGCTGTAAATACAGATGAAGCTTTGCTCTCTCACTGCCAACTCACCTTCTGGTGTGCAGCCTGGTTCCTAACAGGCCACAGACA | -0.0324 |
| TTCCACTTCCGGTCCGACTTCTAGCACCTCCCCTTATGGACTGTTGATATTGCGCATGCTCTAAATTAACTTGGAAGCCAATTTCAGCCCACAGTCAACAGGGAGCACACACATATTTAGAGACATCGTGCAGTTTCCGTAATCGGCGCTCACGGGCAGAGAATATAACCGCGCCCTTATGGTGTTTATTTGT | 0.206 |

Series 6
Target: Prothrombin, mature alpha-thrombin (F2, Homo sapiens, UniProt P00734)
Technique: aptamer microarray, sandwich
Form: DNA with 2'F-ANA
Matrix: in vitro
Tested at: 200 nM
Setting: whole 15-mer aptamer, many near background
Added: Cy3 exosite-II aptamer, 400 nM
Reading: higher = stronger binding
Oligonucleotide: GGTTGGTGTGGTTGG
| Modification | mean fluorescence intensity [a.u.] |
| --- | --- |
| 2'F-ANA at 3 5 7 8 9 10 12 14 | 59.6 |
| 2'F-ANA at 2 4 5 6 7 9 11 14 15 | 56 |
| 2'F-ANA at 3 5 6 9 10 11 13 14 | 47.9 |
| 2'F-ANA at 3 4 7 8 9 10 11 13 | 258 |
| 2'F-ANA at 1 2 3 4 8 9 10 11 12 13 | 86.3 |
| 2'F-ANA at 1 2 3 4 6 7 12 | 338 |
| 2'F-ANA at 1 3 5 7 9 14 | 52.1 |
| 2'F-ANA at 3 7 8 12 | 1760 |
| 2'F-ANA at 1 3 4 5 8 10 15 | 45.6 |
| 2'F-ANA at 1 2 3 5 7 10 11 15 | 74.8 |
| 2'F-ANA at 3 5 7 8 10 12 13 | 63.7 |
| 2'F-ANA at 1 2 3 4 7 8 10 13 14 | 50.1 |
| 2'F-ANA at 3 5 8 10 | 58.1 |
| 2'F-ANA at 2 6 7 9 14 | 127 |
| 2'F-ANA at 1 6 8 9 12 14 15 | 72.1 |
